Experimental data pooled from the literature.
Lines come from different studies, so protocols differ. Several values in a cell are separate wells, animals, samples, runs or records. ± marks the error that the study gave.

| SMILES | target or system | assay | test system | setting | how to read | endpoint | result |
| --- | --- | --- | --- | --- | --- | --- | --- |
| COc1ccc2c3c1O[C@H]1[C@H](O)CC[C@H]4[C@@H](C2)N(C)CC[C@@]341 | – | pH-potentiometric titration | – | – | baseline: O-methyl derivative | Δlog K, isomerization effect | -0.09 log units |
| COc1ccc(-n2cc(C(=O)N3C[C@]4(OC(=O)c5ccccc5NC(C)=O)CC[C@H](OC)[C@@]56[C@@H]4C[C@@H]([C@@H]35)[C@@]3(O)C[C@H](OC)[C@H]4C[C@@H]6[C@]3(O)[C@H]4OC)nn2)cc1 | – | – | rat Sprague-Dawley, plasma | intravenous, 2 mg/kg | – | clearance | 564 mL/min/kg |
| O=C(O)c1cn2c(c(O)c1=O)C(=O)N(Cc1ccc(F)cc1F)C[C@@H]2C(c1ccccc1)c1ccccc1 | – | – | dog cells | – | – | CC50 | > 10 µM |
| NC[C@]1(CC(=O)O)CC[C@@H]([18F])CC1 | – | PET, one-tissue model | rhesus monkey, occipital gyrus | intravenous | – | K1 | 0.0021 mL/min/cm3 |
| CC(C)N1CN(C2c3ccccc3CCc3ccccc32)n2cc(C(=O)O)c(=O)c(O)c2C1=O | – | – | hamster cells | – | – | CC50 | 4.3 µM |
| COc1ccc2c3c1O[C@H]1[C@@H](O)C=C[C@H]4[C@@H](C2)N(CCc2ccccc2)CC[C@@]341 | – | – | octanol/phosphate buffer | 1 h, pH 7.45, ionic strength 0.15 M | – | logD | 2.32 |
| Cc1ccc(OC2CN(C)C2)cc1C(=O)N[C@H](C)c1cc(-c2cnn(C)c2)nc2ccccc12 | Vero E6 | – | – | 31.25 µM | – | viability | 90.8% and 93.4% and 91.3% |
| COc1ccc2c3c1O[C@H]1[C@H](O)C=C[C@@]4(O)[C@@H](C2)N(C)CC[C@]314 | – | pH-potentiometric titration | – | – | baseline: O-methyl derivative | Δlog K, isomerization effect | -0.01 log units |
| CC(C)N1CN(C2c3ccccc3CSc3ccccc32)n2cc(C(=O)O)c(=O)c(O)c2C1=O (stereo not drawn) | – | – | hamster cells | – | – | CC50 | 8.4 µM |
| O=C1NC2(CC2)COc2ncc(F)cc2[C@H]2COCCN2c2ccn3ncc1c3n2 | – | – | Sprague-Dawley rat, female, liver | oral, 2.5 mg/kg/day, 4 weeks, end of treatment | – | organ-to-body weight ratio | 3.52 ± 0.243% |
| CCn1ccc(-c2cc([C@@H](C)NC(=O)c3cc(OC[C@@H]4CCCN4C)ccc3C)c3ccccc3n2)n1 | Vero E6 | – | – | 250 µM | – | viability | 3.82% and 3.1% and 1.67% |
| COc1cc2c(cc1NC(=O)c1cncn1C)C[C@H]1[C@H]3CCCC[C@@]23CCN1C | – | – | C57BL/6 mice, plasma | oral, 50 µg/g, 30 min | – | plasma concentration | 12000 ng/mL and 10200 ng/mL and 12900 ng/mL and 14400 ng/mL |

Repeated from above:
| SMILES | target or system | assay | test system | setting | how to read | endpoint | result |
| --- | --- | --- | --- | --- | --- | --- | --- |
| Cc1ccc(OC2CN(C)C2)cc1C(=O)N[C@H](C)c1cc(-c2cnn(C)c2)nc2ccccc12 | Vero E6 | – | – | 31.25 µM | – | viability | 90.8% and 93.4% and 91.3% |
| COc1ccc2c3c1O[C@H]1[C@H](O)C=C[C@@]4(O)[C@@H](C2)N(C)CC[C@]314 | – | pH-potentiometric titration | – | – | baseline: O-methyl derivative | Δlog K, isomerization effect | -0.01 log units |
